Results gathered from unrelated publications.
Each line is one published result; not all experiments were run side by side. ± marks the error that the study gave.
Cell line: PC-3

SMILES	assay	conditions	how to read	quantity	value
CSCC[C@H](NC(=O)[C@H](CC(C)C)NC(=O)[C@H](Cc1c[nH]cn1)NC(=O)CNC(=O)[C@@H](NC(=O)[C@H](C)NC(=O)[C@H](Cc1c[nH]c2ccccc12)NC(=O)[C@H](CCC(N)=O)NC(=O)CCCCCNC(=O)CCN(CCNC(=O)c1ccc(F)cc1)CCC(=O)NCCCC[C@@H]1NC(=O)[C@@H](Cc2ccc(O)cc2)NC(=O)[C@H](CC(=O)O)NC(=O)CNC(=O)[C@H](CCCNC(=N)N)NC1=O)C(C)C)C(N)=O [fluorine-18 labelled]	–	30 min, 37 °C	baseline: added radioactivity	cellular uptake	4.38 ± 0.17%
CCCc1cc2c(c(OC)c1OC)OCO2	cell growth or viability, MTT	72 h	–	GI50	> 250 µM
CSCC[C@H](NC(=O)[C@H](CC(C)C)NC(=O)[C@H](Cc1c[nH]cn1)NC(=O)CNC(=O)[C@@H](NC(=O)[C@H](C)NC(=O)[C@H](Cc1c[nH]c2ccccc12)NC(=O)[C@H](CCC(N)=O)NC(=O)CCCCCCCNC(=O)[C@@H](CO)NC(=O)[C@@H](CO)NC(=O)[C@@H](CCCCNC(=O)Cn1ccnc1[N+](=O)[O-])NC(=O)CN1CCN(CC(=O)O)CCN(CC(=O)O)CCN(CC(=O)O)CC1)C(C)C)C(N)=O [indium-111 labelled]	–	concentration not given, 8 h, normoxia	–	retained internalized radioactivity	35.3%
COc1c(C)cc2c(c1OC)OCO2	cell growth or viability, MTT	72 h	–	GI50	> 250 µM
O=C(O)CCC(NP(=O)(O)OCCC[C@@H](NC(=O)CCC(NC(=O)CCCCCNC(=O)c1ccc([18F])cc1)C(=O)O)C(=O)O)C(=O)O (stereo partly drawn)	–	2 h	–	cell uptake	0.08 ± 0.02%
CCCCCCCCC=CCCCCCCCC(=O)OC(COC(=O)Cc1c(C)n(C(=O)c2ccc(Cl)cc2)c2ccc(OC)cc12)COP(=O)([O-])OCC[N+](C)(C)C (stereo not drawn)	SRB	–	baseline: MCF-10A IC50 over PC-3 IC50	selectivity index	5.43
COc1cc(/C=C(\C#N)C(=O)Nc2nnc(C(F)(F)F)s2)ccc1OC(=O)N1CCN(C(=O)CCCC(=O)NCCCC[C@@H]2NC(=O)[C@@H](Cc3ccc(O)cc3)NC(=O)[C@H](CC(=O)O)NC(=O)CNC(=O)[C@H](CCCNC(=N)N)NC2=O)CC1	cell growth or viability, MTT	–	–	GI50	60 µM
C=CCc1cc(OC)c(OC)c(OC)c1OC	cell growth or viability, MTT	72 h	–	GI50	> 250 µM
CSCC[C@H](NC(=O)[C@H](CC(C)C)NC(=O)[C@H](Cc1c[nH]cn1)NC(=O)CNC(=O)[C@@H](NC(=O)[C@H](C)NC(=O)[C@H](Cc1c[nH]c2ccccc12)NC(=O)[C@H](CCC(N)=O)NC(=O)CNC(=O)[C@H](CO)NC(=O)CNC(=O)CCCCCCCNC(=O)CCC(=O)Nc1ccc(CNC23CNCCNCC(N)(CNCCNC2)CNCCNC3)cc1)C(C)C)C(N)=O [copper-64 labelled]	–	0 to 60 min	–	initial internalization rate	3.2 fmol/mg/min
CSCC[C@H](NC(=O)[C@H](CC(C)C)NC(=O)[C@H](Cc1c[nH]cn1)NC(=O)CNC(=O)[C@@H](NC(=O)[C@H](C)NC(=O)[C@H](Cc1c[nH]c2ccccc12)NC(=O)[C@H](CCC(N)=O)NC(=O)CCCCCCCNC(=O)[C@@H](CCCCNC(=O)Cn1ccnc1[N+](=O)[O-])NC(=O)[C@@H](CCCCNC(=O)Cn1ccnc1[N+](=O)[O-])NC(=O)[C@@H](CCCCNC(=O)Cn1ccnc1[N+](=O)[O-])NC(=O)CN1CCN(CC(=O)O)CCN(CC(=O)O)CCN(CC(=O)O)CC1)C(C)C)C(N)=O [indium-111 labelled]	–	concentration not given, 8 h, normoxia	–	retained internalized radioactivity	29.7%
COc1cc(C)cc2c1OCO2	cell growth or viability, MTT	72 h	–	GI50	3.51 µM
CCCCCCCCc1ccc(C(=O)N[C@@H](CO)C(=O)N[C@H](C(=O)N[C@@H](C)C(=O)N[C@H](C(=O)O)[C@@H](C)CC)[C@@H](C)OP(=O)(O)O)cc1	cell growth or viability, MTT	72 h	–	IC50	55.7 µM
CSCC[C@H](NC(=O)[C@H](CC(C)C)NC(=O)[C@H](Cc1c[nH]cn1)NC(=O)CNC(=O)[C@@H](NC(=O)[C@H](C)NC(=O)[C@H](Cc1c[nH]c2ccccc12)NC(=O)[C@H](CCC(N)=O)NC(=O)CCCCCCCNC(=O)[C@@H](CO)NC(=O)[C@@H](CO)NC(=O)[C@@H](CO)NC(=O)CN1CCN(CC(=O)O)CCN(CC(=O)O)CCN(CC(=O)O)CC1)C(C)C)C(N)=O [indium-111 labelled]	–	concentration not given, 8 h, hypoxia	–	retained internalized radioactivity	41.4%
O=C(C[P+]([Au-][Cl])(c1ccccc1)c1ccccc1)[O][Ti+2][O]C(=O)C[P+]([Au-][Cl])(c1ccccc1)c1ccccc1.c1cc[cH-]c1.c1cc[cH-]c1	cell viability, XTT	72 h	–	IC50	27.1 µM
C[P+](c1ccccc1)(c1ccccc1)c1ccccc1	cell growth or viability, MTT	72 h	–	GI50	5.01 µM
CCCNC(=O)[C@H](CC(C)C)NC(=O)[C@H](Cc1c[nH]cn1)NC(=O)CNC(=O)[C@@H](NC(=O)[C@H](C)NC(=O)[C@H](Cc1c[nH]c2ccccc12)NC(=O)[C@H](CCC(N)=O)NC(=O)[C@@H](Cc1ccccc1)NC(=O)CCCCCNC(=O)CN1CCN(CC(=O)O)CCN(CC(=O)O)CCN(CC(=O)O)CC1)C(C)C [indium-111 labelled]	–	60 min, 37 °C	–	internalization	12%
CC(C)=CCC/C(C)=C/C[P+](c1ccccc1)(c1ccccc1)c1ccccc1	cell growth or viability, MTT	72 h	–	GI50	0.296 µM
CSCC[C@H](NC(=O)[C@H](CC(C)C)NC(=O)[C@H](Cc1c[nH]cn1)NC(=O)CNC(=O)[C@@H](NC(=O)[C@H](C)NC(=O)[C@H](Cc1c[nH]c2ccccc12)NC(=O)[C@H](CCC(N)=O)NC(=O)CCCCCCCNC(=S)Nc1ccc(C[C@H]2CN(CC(=O)O)CCN(CC(=O)O)CCN2CC(=O)O)cc1)C(C)C)C(N)=O [copper-64 labelled]	–	0 to 60 min, 64Cu-labelled	–	initial internalization velocity	8.9 fmol/mg/min
COc1ccc(C(c2c(C)nn(-c3ccccc3)c2O)c2c(C)nn(-c3ccccc3)c2O)cc1	cell growth or viability, MTT	48 h	–	IC50	30.5 µM
O=C(O)CCC(NP(=O)(O)OCCC[C@@H](NC(=O)CCC(NC(=O)c1ccc([18F])cc1)C(=O)O)C(=O)O)C(=O)O (stereo partly drawn)	–	2 h	–	cell uptake	0.07 ± 0.02%
COc1cc(C(c2c(C)nn(-c3ccccc3)c2O)c2c(C)nn(-c3ccccc3)c2O)cc(OC)c1OC	cell growth or viability, MTT	48 h	–	IC50	28.4 µM
O=C(O)CCC(NP(=O)(O)OCCC[C@@H](NC(=O)CCC(NC(=O)CCCCCNC(=O)CCCCCNC(=O)c1ccc([18F])cc1)C(=O)O)C(=O)O)C(=O)O (stereo partly drawn)	–	1 h	–	cell uptake	0.14 ± 0.04%
CCCCCCCCC[P+](c1ccccc1)(c1ccccc1)c1ccccc1	cell growth or viability, MTT	72 h	–	GI50	0.109 µM
Cc1nn(-c2ccccc2)c(O)c1C(c1cccc([N+](=O)[O-])c1)c1c(C)nn(-c2ccccc2)c1O	cell growth or viability, MTT	48 h	–	IC50	30.3 µM

Excerpt of the above:
SMILES	assay	conditions	how to read	quantity	value
COc1cc(C)cc2c1OCO2	cell growth or viability, MTT	72 h	–	GI50	3.51 µM
CCCCCCCCc1ccc(C(=O)N[C@@H](CO)C(=O)N[C@H](C(=O)N[C@@H](C)C(=O)N[C@H](C(=O)O)[C@@H](C)CC)[C@@H](C)OP(=O)(O)O)cc1	cell growth or viability, MTT	72 h	–	IC50	55.7 µM
CSCC[C@H](NC(=O)[C@H](CC(C)C)NC(=O)[C@H](Cc1c[nH]cn1)NC(=O)CNC(=O)[C@@H](NC(=O)[C@H](C)NC(=O)[C@H](Cc1c[nH]c2ccccc12)NC(=O)[C@H](CCC(N)=O)NC(=O)CCCCCCCNC(=O)[C@@H](CO)NC(=O)[C@@H](CO)NC(=O)[C@@H](CO)NC(=O)CN1CCN(CC(=O)O)CCN(CC(=O)O)CCN(CC(=O)O)CC1)C(C)C)C(N)=O [indium-111 labelled]	–	concentration not given, 8 h, hypoxia	–	retained internalized radioactivity	41.4%
